Measured values gathered from unrelated publications.
Each line is one published result; not all experiments were run side by side. ± marks the error that the study gave. ≈ marks a conversion by molar mass, not a printed value. Bridge positions count the residues as written; N and C are the ends. Ends that are not written are not given here. * marks the point of attachment.
Organism: Escherichia coli

ACPIFTKIQGTYRGKAKCK (disulfide 2-18 (inferred)) (disulfide)
antibacterial activity (K-12 sample A (CGSC sample B); MBC, 2 h, pH 7.4, 37 °C, together with: E. coli K-235 LPS at peptide:LPS 1:1 w/w): inhibited

CC[C@H](C)[C@H](NC(=O)[C@H](C)NC(=O)[C@H](CCCCN)NC(=O)[C@@H](NC(=O)[C@@H]1CCCN1C(=O)[C@@H](NC(=O)[C@H](CCCCN)NC(=O)[C@H](C)N)[C@@H](C)CC)[C@@H](C)CC)C(=O)N[C@@H](CCCCN)C(=O)N[C@H](C(=O)N[C@H](C(=O)NCC(=O)N[C@@H](CCCCN)C(=O)N[C@@H](C)C(=O)N[C@H](C(=O)NCC(=O)N[C@@H](CCCCN)C(=O)NCC(=O)N[C@@H](CC(C)C)C(=O)N[C@@H](CCCNC(=N)N)C(=O)N[C@@H](C)C(=O)N[C@H](C(=O)N[C@@H](CC(N)=O)C(=O)N[C@H](C(=O)N[C@@H](C)C(=O)N[C@@H](CO)C(=O)N[C@H](C(=O)N[C@@H](C)C(=O)N[C@@H](CC(N)=O)C(=O)N[C@@H](CC(=O)O)C(=O)N[C@H](C(=O)N[C@@H](Cc1ccccc1)C(=O)N[C@@H](CC(N)=O)C(=O)N[C@@H](Cc1ccccc1)C(=O)N[C@@H](CC(C)C)C(=O)N[C@@H](CCCCN)C(=O)N1CCC[C@H]1C(=O)N[C@@H](CCCCN)C(=O)N[C@@H](CCCCN)C(=O)N[C@@H](CCCNC(=N)N)C(=O)N[C@@H](CCCCN)C(=O)N[C@@H](Cc1c[nH]cn1)C(=O)O)C(C)C)[C@@H](C)O)[C@@H](C)CC)[C@@H](C)CC)C(C)C)C(C)C)[C@@H](C)O
MBC (DH5α; 24 h, 37 °C): 2 µM

CCCCN1C=C(c2ccc3ccccc3n2)C(C[N+](=O)[O-])c2ccccc21 (stereo not shown)
IC50 (lacZ reporter expression; VirF-independent lacZ control; 3 h, 37 °C, 6.2% DMSO, together with: 1 mM IPTG): > 100 µM

CC(C)C[C@H](NC(=O)[C@H](C)NC(=O)[C@H](CCCCN)NC(=O)[C@H](C)NC(=O)[C@H](CC(C)C)NC(=O)[C@H](CCCCN)NC(=O)[C@H](CC(C)C)NC(=O)[C@H](Cc1c[nH]c2ccccc12)NC(=O)[C@H](CC(C)C)NC(=O)[C@@H]1CCCN1C(=O)[C@H](C)NC(=O)[C@H](CC(C)C)NC(=O)[C@H](CC(C)C)NC(=O)[C@H](CCCCN)NC(=O)[C@H](CC(C)C)NC(=O)[C@H](C)NC(=O)[C@H](CCCCN)NC(=O)[C@H](C)NC(=O)[C@H](CC(C)C)NC(=O)[C@H](CCCCN)NC(=O)[C@@H](N)CCCCN)C(=O)N[C@@H](CCCCN)C(=O)N[C@@H](CCCCN)C(=O)N[C@@H](C)C(N)=O
MIC50 (broth microdilution; TOP10; overnight, 37 °C): 0.8 ± 0.01 µM (≈ 2.13 µg/mL)

CC[C@H](C)[C@H](NC(=O)[C@@H]1CCCN1C(=O)[C@H](CCCNC(=N)N)NC(=O)[C@@H]1CCCN1C(=O)[C@@H]1CCCN1C(=O)[C@@H](NC(=O)[C@@H]1CCCN1C(=O)[C@H](CCCNC(=N)N)NC(=O)[C@@H]1CCCN1C(=O)[C@H](CC(C)C)NC(=O)[C@H](Cc1ccc(O)cc1)NC(=O)[C@H](CO)NC(=O)CNC(=O)[C@H](CCCCN)NC(=O)[C@H](CC(=O)O)NC(=O)[C@@H](N)C(C)C)[C@@H](C)O)C(=O)N[C@@H](Cc1ccc(O)cc1)C(=O)N[C@@H](CC(N)=O)C(=O)N[C@@H](CCCNC(=N)N)C(=O)N[C@@H](CC(N)=O)C(=O)O
MIC (broth microdilution; BW25113 parental, Mueller-Hinton broth; 18 h, 37 °C): 0.197 ± 0.088 µM (≈ 0.461 µg/mL)

CC[C@H](C)[C@H](NC(=O)[C@H](CO)NC(=O)[C@H](CO)NC(=O)[C@H](Cc1ccccc1)NC(=O)CN)C(=O)N[C@@H](Cc1ccccc1)C(=O)N[C@@H](CCCCNC(=N)N)C(=O)NCC(=O)N[C@H](C(=O)N[C@@H](C)C(=O)N[C@@H](CCCCNC(=N)N)C(=O)N[C@@H](Cc1ccccc1)C(=O)N[C@@H](C)C(=O)N[C@@H](CO)C(=O)N[C@@H](CCCCNC(=N)N)C(=O)NCC(=O)N[C@@H](CC(C)C)C(=O)NCC(=O)N[C@@H](CCCCNC(=N)N)C(N)=O)C(C)C
MBC (ATCC 8739; pretreated trypsin 1 mg/mL): 16 µM

CC(C)C[C@H](NC(=O)[C@H](C)NC(=O)[C@H](CC(C)C)NC(=O)[C@H](CCCCN)NC(=O)[C@H](CCCCN)NC(=O)[C@H](Cc1c[nH]c2ccccc12)NC(=O)[C@H](CC(C)C)NC(=O)[C@H](CC(C)C)NC(=O)[C@H](C)NC(=O)[C@@H]1CCCN1C(=O)[C@H](CCCCN)NC(=O)[C@H](CCCCN)NC(=O)[C@H](CC(C)C)NC(=O)[C@H](C)NC(=O)[C@H](CC(C)C)NC(=O)[C@H](C)NC(=O)[C@H](CC(C)C)NC(=O)[C@H](CCCCN)NC(=O)[C@@H](N)CCCCN)C(=O)N[C@@H](C)C(=O)N[C@@H](CC(C)C)C(=O)N[C@@H](CCCCN)C(=O)N[C@@H](CCCCN)C(=O)N[C@@H](C)C(N)=O
MIC50 (broth microdilution; NCTC 9001; overnight, 37 °C): 0.78 ± 0.01 µM (≈ 2.07 µg/mL)

Myristoyl-FCPRRYKQIGTGLPGTKCK (disulfide 2-18 (inferred)) (N-myristoyl, disulfide; Myristoyl = CCCCCCCCCCCCCC(=O)*)
inhibition (antibacterial activity; K-12 MG1655; MBC, 2 h, pH 7.4, 37 °C, together with: LPS, peptide:LPS 1:5 w/w): 25%

CC(C)C[C@H](NC(=O)[C@H](CCCCN)NC(=O)[C@H](CCCNC(=N)N)NC(=O)[C@@H](NC(=O)[C@H](CCCCN)NC(=O)[C@H](CCCCN)NC(=O)[C@@H](NC(=O)[C@H](Cc1ccccc1)NC(=O)[C@H](CCCNC(=N)N)NC(=O)[C@@H](N)CCCNC(=N)N)C(C)C)C(C)C)C(=O)N[C@H](C(=O)N[C@@H](CCCCN)C(=O)O)C(C)C
EC50 (bacterial killing, colony count; BL21; 1 h, pH 7, 37 °C): 3.1 µg/mL (≈ 1.99 µM)

CC(C)C[C@H](NC(=O)[C@H](C)NC(=O)[C@H](CC(C)C)NC(=O)[C@H](CCCCN)NC(=O)[C@H](CCCCN)NC(=O)[C@H](Cc1c[nH]c2ccccc12)NC(=O)[C@H](CC(C)C)NC(=O)[C@@H]1CCCN1C(=O)[C@H](C)NC(=O)[C@H](CC(C)C)NC(=O)[C@H](CCCCN)NC(=O)[C@H](CCCCN)NC(=O)[C@H](CC(C)C)NC(=O)[C@H](C)NC(=O)[C@H](CC(C)C)NC(=O)[C@H](C)NC(=O)[C@H](CC(C)C)NC(=O)[C@H](CCCCN)NC(=O)[C@@H](N)CCCCN)C(=O)N[C@@H](C)C(=O)N[C@@H](CC(C)C)C(=O)N[C@@H](CCCCN)C(=O)N[C@@H](CCCCN)C(=O)N[C@@H](C)C(N)=O
MIC50 (broth microdilution; TOP10; overnight, 37 °C): 0.68 ± 0.14 µM (≈ 1.81 µg/mL)

CCCCN1c2ccccc2C=C(c2ccc3ccccc3n2)C1c1ccccc1 (stereo not shown)
IC50 (lacZ reporter expression; VirF-independent lacZ control; 3 h, 37 °C, 6.2% DMSO, together with: 1 mM IPTG): > 100 µM

Glycyl-L-leucinamide
collaterally sensitive strains (60 lab-evolved antibiotic-resistant strains; ~0.8x wild-type MIC, 24 h, 30 °C): 82%

CC(C)C[C@H](NC(=O)[C@H](C)NC(=O)[C@H](CC(C)C)NC(=O)[C@H](CCCCN)NC(=O)[C@H](CCCCN)NC(=O)[C@H](Cc1c[nH]c2ccccc12)NC(=O)[C@H](CC(C)C)NC(=O)[C@H](CC(C)C)NC(=O)[C@H](C)NC(=O)[C@H](CC(C)C)NC(=O)[C@H](CCCCN)NC(=O)[C@H](CCCCN)NC(=O)[C@@H]1CCCN1C(=O)[C@H](C)NC(=O)[C@H](CC(C)C)NC(=O)[C@H](C)NC(=O)[C@H](CC(C)C)NC(=O)[C@H](CCCCN)NC(=O)[C@@H](N)CCCCN)C(=O)N[C@@H](C)C(=O)N[C@@H](CC(C)C)C(=O)N[C@@H](CCCCN)C(=O)N[C@@H](CCCCN)C(=O)N[C@@H](C)C(N)=O
MIC50 (broth microdilution; NCTC 9001; overnight, 37 °C): 0.8 ± 0.03 µM (≈ 2.13 µg/mL)

GSS(Octanoyl)FLSPEHQRVQQRKESKKPPAKLQPR (acyl-ghrelin; Octanoyl = CCCCCCCC(=O)*; sequence looked up)
dead bacteria (LIVE/DEAD staining; peptide, sodium phosphate buffer; 200 µg/mL, 2 h, pH 6.8, 37 °C): ~75%

CC(C)C[C@H](NC(=O)[C@H](C)NC(=O)[C@H](CCCCN)NC(=O)[C@H](C)NC(=O)[C@H](CC(C)C)NC(=O)[C@H](CCCCN)NC(=O)[C@H](CC(C)C)NC(=O)[C@H](Cc1c[nH]c2ccccc12)NC(=O)[C@H](CC(C)C)NC(=O)[C@H](CC(C)C)NC(=O)[C@H](C)NC(=O)[C@H](CC(C)C)NC(=O)[C@H](CC(C)C)NC(=O)[C@H](CCCCN)NC(=O)[C@H](CC(C)C)NC(=O)[C@H](C)NC(=O)[C@H](CCCCN)NC(=O)[C@H](C)NC(=O)[C@H](CC(C)C)NC(=O)[C@H](CCCCN)NC(=O)[C@@H](N)CCCCN)C(=O)N[C@@H](CCCCN)C(=O)N[C@@H](CCCCN)C(=O)N[C@@H](C)C(N)=O
MIC50 (broth microdilution; NCTC 9001; overnight, 37 °C): 13.05 ± 0.13 µM (≈ 34.9 µg/mL)

CC[C@H](C)[C@H](NC(=O)CN)C(=O)NCC(=O)N[C@@H](CCCCN)C(=O)N[C@@H](Cc1ccccc1)C(=O)N[C@@H](CC(C)C)C(=O)N[C@@H](CCCCN)C(=O)N[C@@H](CCCCN)C(=O)N[C@@H](C)C(=O)N[C@@H](CCCCN)C(=O)N[C@@H](CCCCN)C(=O)N[C@@H](Cc1ccccc1)C(=O)NCC(=O)N[C@@H](CCCCN)C(=O)N[C@@H](C)C(=O)N[C@@H](Cc1ccccc1)C(=O)N[C@H](C(=O)N[C@@H](CCCCN)C(=O)N[C@H](C(=O)N[C@@H](CC(C)C)C(=O)N[C@@H](CCCCN)C(=O)N[C@@H](CCCCN)C(N)=O)[C@@H](C)CC)C(C)C
MBC (K12): 12.5 µg/mL

A few entries again:
CC[C@H](C)[C@H](NC(=O)[C@@H]1CCCN1C(=O)[C@H](CCCNC(=N)N)NC(=O)[C@@H]1CCCN1C(=O)[C@@H]1CCCN1C(=O)[C@@H](NC(=O)[C@@H]1CCCN1C(=O)[C@H](CCCNC(=N)N)NC(=O)[C@@H]1CCCN1C(=O)[C@H](CC(C)C)NC(=O)[C@H](Cc1ccc(O)cc1)NC(=O)[C@H](CO)NC(=O)CNC(=O)[C@H](CCCCN)NC(=O)[C@H](CC(=O)O)NC(=O)[C@@H](N)C(C)C)[C@@H](C)O)C(=O)N[C@@H](Cc1ccc(O)cc1)C(=O)N[C@@H](CC(N)=O)C(=O)N[C@@H](CCCNC(=N)N)C(=O)N[C@@H](CC(N)=O)C(=O)O
MIC (broth microdilution; BW25113 parental, Mueller-Hinton broth; 18 h, 37 °C): 0.197 ± 0.088 µM (≈ 0.461 µg/mL)

CC[C@H](C)[C@H](NC(=O)[C@H](CO)NC(=O)[C@H](CO)NC(=O)[C@H](Cc1ccccc1)NC(=O)CN)C(=O)N[C@@H](Cc1ccccc1)C(=O)N[C@@H](CCCCNC(=N)N)C(=O)NCC(=O)N[C@H](C(=O)N[C@@H](C)C(=O)N[C@@H](CCCCNC(=N)N)C(=O)N[C@@H](Cc1ccccc1)C(=O)N[C@@H](C)C(=O)N[C@@H](CO)C(=O)N[C@@H](CCCCNC(=N)N)C(=O)NCC(=O)N[C@@H](CC(C)C)C(=O)NCC(=O)N[C@@H](CCCCNC(=N)N)C(N)=O)C(C)C
MBC (ATCC 8739; pretreated trypsin 1 mg/mL): 16 µM
